Measured values of several laboratories.
Protocols differ between the studies behind these lines.
MTNR1A: Melatonin receptor type 1A (MTNR1A, Homo sapiens, UniProt P48039)
Chain of UniProt P48039 (whole entry, looked up): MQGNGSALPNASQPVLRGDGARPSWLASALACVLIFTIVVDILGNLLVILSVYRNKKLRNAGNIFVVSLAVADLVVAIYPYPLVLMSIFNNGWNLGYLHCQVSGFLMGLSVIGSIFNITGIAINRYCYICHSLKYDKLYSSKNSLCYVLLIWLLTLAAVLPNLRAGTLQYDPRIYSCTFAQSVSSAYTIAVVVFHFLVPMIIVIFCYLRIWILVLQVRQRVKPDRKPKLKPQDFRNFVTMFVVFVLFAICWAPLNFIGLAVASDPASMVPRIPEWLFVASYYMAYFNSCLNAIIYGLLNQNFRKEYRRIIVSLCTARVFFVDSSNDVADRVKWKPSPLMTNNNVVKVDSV
SIK1: Serine/threonine-protein kinase SIK1 (SIK1, Homo sapiens, UniProt P57059)
Chain of UniProt P57059 (whole entry, looked up): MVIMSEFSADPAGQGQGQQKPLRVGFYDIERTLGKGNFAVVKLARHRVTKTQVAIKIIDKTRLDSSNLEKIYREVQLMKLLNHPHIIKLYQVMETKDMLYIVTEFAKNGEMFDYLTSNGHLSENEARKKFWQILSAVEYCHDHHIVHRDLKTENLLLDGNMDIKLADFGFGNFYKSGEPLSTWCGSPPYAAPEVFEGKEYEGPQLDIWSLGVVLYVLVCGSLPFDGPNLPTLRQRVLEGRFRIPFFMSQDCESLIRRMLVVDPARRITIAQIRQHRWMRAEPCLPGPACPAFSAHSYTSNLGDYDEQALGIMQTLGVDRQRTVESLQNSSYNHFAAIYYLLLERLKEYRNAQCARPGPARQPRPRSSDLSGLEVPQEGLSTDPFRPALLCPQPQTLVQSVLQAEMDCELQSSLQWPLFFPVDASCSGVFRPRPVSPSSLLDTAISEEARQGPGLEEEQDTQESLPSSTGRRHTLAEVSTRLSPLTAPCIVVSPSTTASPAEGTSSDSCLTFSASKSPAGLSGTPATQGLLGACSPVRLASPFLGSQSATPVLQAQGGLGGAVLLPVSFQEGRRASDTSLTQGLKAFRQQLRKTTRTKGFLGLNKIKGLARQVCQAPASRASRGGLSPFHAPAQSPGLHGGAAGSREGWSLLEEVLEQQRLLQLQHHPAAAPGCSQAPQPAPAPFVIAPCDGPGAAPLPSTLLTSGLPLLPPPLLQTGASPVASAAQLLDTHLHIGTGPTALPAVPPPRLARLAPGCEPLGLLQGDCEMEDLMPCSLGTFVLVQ
Chain of UniProt P42336 (whole entry, unmodified, looked up): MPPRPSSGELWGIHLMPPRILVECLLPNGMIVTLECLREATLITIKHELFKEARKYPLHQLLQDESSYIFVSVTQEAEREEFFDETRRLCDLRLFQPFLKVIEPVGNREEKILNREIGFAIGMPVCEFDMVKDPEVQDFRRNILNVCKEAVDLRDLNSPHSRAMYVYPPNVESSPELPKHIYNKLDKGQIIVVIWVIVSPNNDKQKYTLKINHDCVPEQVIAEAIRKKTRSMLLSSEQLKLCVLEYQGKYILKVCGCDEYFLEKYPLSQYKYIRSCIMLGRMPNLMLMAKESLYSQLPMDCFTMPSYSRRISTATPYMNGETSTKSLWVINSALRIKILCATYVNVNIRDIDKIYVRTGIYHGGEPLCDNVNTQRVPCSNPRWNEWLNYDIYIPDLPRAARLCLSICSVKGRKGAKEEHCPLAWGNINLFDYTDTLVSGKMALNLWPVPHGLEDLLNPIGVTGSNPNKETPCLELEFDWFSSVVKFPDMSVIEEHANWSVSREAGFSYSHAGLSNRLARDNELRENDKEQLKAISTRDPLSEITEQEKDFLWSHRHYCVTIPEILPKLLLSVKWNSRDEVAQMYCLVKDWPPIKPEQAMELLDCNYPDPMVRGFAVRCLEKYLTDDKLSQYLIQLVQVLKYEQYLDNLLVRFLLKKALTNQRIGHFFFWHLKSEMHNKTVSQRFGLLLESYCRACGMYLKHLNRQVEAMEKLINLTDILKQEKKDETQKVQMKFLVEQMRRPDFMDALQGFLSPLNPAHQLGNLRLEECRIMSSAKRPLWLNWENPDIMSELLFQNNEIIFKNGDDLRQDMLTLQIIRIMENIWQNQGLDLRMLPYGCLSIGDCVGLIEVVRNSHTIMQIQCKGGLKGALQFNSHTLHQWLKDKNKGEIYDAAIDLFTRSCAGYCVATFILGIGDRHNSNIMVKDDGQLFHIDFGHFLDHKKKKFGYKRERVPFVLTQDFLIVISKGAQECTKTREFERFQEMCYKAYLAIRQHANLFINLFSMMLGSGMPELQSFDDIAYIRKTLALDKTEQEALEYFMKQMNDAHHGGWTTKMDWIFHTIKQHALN
Chain of UniProt P17948 (whole entry, looked up): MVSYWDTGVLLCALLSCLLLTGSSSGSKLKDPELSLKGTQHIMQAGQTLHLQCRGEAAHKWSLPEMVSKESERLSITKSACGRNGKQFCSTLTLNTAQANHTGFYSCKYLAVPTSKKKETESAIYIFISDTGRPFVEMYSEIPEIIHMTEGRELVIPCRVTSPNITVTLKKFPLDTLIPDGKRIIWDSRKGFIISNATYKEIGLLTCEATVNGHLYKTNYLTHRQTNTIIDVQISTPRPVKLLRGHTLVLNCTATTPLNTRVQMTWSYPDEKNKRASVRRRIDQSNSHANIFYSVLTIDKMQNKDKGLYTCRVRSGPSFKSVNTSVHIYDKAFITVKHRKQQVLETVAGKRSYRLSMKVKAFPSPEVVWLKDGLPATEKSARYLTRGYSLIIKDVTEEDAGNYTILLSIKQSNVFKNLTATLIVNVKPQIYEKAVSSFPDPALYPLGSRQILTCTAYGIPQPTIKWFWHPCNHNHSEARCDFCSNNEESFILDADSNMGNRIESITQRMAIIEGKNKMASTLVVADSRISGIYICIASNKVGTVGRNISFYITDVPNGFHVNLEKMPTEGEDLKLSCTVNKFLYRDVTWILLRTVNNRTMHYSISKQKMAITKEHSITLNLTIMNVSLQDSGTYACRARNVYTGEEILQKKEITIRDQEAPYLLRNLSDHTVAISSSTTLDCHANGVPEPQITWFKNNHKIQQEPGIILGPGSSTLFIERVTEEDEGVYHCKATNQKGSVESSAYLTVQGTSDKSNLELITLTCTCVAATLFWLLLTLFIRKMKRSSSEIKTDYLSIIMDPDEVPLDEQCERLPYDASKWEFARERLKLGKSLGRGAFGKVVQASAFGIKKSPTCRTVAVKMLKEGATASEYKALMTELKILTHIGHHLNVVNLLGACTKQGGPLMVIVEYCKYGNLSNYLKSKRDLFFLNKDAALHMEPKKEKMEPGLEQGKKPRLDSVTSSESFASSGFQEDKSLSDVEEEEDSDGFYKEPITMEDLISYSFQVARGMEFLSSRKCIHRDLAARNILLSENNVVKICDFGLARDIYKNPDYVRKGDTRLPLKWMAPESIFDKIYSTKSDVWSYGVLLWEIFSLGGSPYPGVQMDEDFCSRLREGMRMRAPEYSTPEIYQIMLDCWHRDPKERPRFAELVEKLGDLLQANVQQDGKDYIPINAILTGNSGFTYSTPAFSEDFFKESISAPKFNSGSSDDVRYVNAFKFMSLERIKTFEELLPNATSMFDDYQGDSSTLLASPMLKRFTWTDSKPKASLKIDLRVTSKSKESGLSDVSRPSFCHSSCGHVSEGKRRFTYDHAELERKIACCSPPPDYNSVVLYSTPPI
Chain of UniProt P48730 (whole entry, looked up): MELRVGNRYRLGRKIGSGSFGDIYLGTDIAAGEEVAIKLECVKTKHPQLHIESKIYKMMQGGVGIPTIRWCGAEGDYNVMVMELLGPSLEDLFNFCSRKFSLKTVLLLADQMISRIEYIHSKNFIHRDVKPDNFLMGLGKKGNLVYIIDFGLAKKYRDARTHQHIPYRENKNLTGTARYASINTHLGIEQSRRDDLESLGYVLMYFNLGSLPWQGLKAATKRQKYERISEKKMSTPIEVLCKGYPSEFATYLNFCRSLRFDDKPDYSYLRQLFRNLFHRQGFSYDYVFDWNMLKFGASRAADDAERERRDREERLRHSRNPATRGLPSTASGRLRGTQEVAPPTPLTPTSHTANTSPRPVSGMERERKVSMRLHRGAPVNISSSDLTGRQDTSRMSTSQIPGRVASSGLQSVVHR
Chain of UniProt P49286 (whole entry, looked up): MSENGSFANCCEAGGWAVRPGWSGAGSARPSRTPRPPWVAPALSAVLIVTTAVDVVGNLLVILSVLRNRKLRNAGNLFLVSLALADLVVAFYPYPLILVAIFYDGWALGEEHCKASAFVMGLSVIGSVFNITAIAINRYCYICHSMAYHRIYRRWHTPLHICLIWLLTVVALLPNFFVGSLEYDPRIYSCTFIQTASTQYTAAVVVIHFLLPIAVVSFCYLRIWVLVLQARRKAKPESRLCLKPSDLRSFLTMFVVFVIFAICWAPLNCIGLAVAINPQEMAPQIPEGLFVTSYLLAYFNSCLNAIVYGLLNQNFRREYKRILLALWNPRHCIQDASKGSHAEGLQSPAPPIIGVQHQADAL
Chain of UniProt P07947 (whole entry, looked up): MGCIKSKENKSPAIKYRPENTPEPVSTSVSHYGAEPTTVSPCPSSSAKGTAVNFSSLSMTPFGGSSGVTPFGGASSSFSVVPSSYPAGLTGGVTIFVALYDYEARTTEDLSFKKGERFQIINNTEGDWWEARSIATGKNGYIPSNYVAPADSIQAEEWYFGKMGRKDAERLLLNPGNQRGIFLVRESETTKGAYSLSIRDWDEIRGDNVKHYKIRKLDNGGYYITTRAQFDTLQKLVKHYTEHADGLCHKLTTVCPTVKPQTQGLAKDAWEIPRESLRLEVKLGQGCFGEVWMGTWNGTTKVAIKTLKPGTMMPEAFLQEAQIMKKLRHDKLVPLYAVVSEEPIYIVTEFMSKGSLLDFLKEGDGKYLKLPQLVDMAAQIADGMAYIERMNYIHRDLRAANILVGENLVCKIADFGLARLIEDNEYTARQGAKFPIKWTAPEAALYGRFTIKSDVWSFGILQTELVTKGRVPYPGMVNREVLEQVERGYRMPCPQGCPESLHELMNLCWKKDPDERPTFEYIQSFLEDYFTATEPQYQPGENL

Structure (SMILES) | tested on | assay | test system | conditions | measurement | value
COc1cc(-c2cncc3c2CN(C)Cc2cc(N4CCNCC4)ccc2-3)cc(OC)c1OC | STK3 (Homo sapiens, UniProt Q13188) | enzyme activity, inhibitor |  | 1 µM | remaining activity | 93%
COc1cc2c(CCNC(C)=O)c(I)[nH]c2cc1[N+](=O)[O-] | MTNR1A | β-arrestin recruitment, agonist | CHO-K1 | 90 min | Emax | 96%
CCN(O)N=Nc1ccc(S(=O)(=O)Nc2onc(C)c2C)cc1 |  | DPPH scavenging, absorbance |  | 240 µg/mL | inhibition | 24.4%
O=C(NCc1cc(O)c(O)c(Br)c1)c1cccc(Br)c1 | Replicase polyprotein 1ab, papain-like protease (rep, Porcine epidemic diarrhea virus, UniProt P0C6Y4) | enzyme activity, inhibitor, FRET |  | 10 µM | inhibition | 57.2%
CC[C@H](C)[C@H](NC(=O)[C@H](CCC(N)=O)NC(=O)[C@@H](NC(=O)[C@H](CCSC)NC(=O)[C@H](CCCCN)NC(=O)[C@H](CO)NC(=O)[C@@H](NC(=O)[C@H](CCSC)NC(=O)[C@H](CC(C)C)NC(=O)[C@H](CC(N)=O)NC(=O)[C@@H](NC(=O)[C@@H](NC(=O)[C@H](CO)NC(=O)[C@H](CC(C)C)NC(=O)[C@H](C)NC(=O)[C@H](CCCNC(=N)N)NC(=O)[C@H](CCC(=O)O)NC(=O)[C@H](Cc1ccc(O)cc1)NC(=O)[C@H](Cc1ccccc1)NC(=O)[C@H](C)NC(=O)[C@H](CC(N)=O)NC(=O)[C@@H](N)CCCCN)[C@@H](C)CC)[C@@H](C)CC)[C@@H](C)O)C(C)C)C(=O)N[C@@H](CC(N)=O)C(=O)N[C@H](C(=O)O)C(C)C | Cyclin-dependent kinase 5, with p35 (CDK5, Homo sapiens, UniProt Q00535) | enzyme activity, inhibitor, radiometric |  | 250 µM | inhibition | 73%
FC(F)(F)Oc1cccc(-c2cnc3ccc(-c4ccncc4)nn23)c1 | FLT1 (Homo sapiens, UniProt P17948) | enzyme activity, inhibitor, radiometric |  | 1 µM | activity vs control | 28%
O=S(=O)(Nc1nccs1)c1ccc(N=NN(O)c2ccccc2)cc1 |  | DPPH scavenging, absorbance |  | 120 µg/mL | inhibition | 32.9%
CC[C@H]1OC(=O)[C@H](C)[C@@H](O[C@H]2C[C@@](C)(OC)[C@@H](O)[C@H](C)O2)[C@H](C)[C@@H](O[C@@H]2O[C@H](C)C[C@H](N(C)C)[C@H]2O)[C@](C)(OC)C[C@@H](C)C(=O)[C@H](C)[C@@H](O)[C@]1(C)O | Helicobacter pylori | microbial growth, broth dilution |  | 31.25 µg/mL | inhibition | 100%
CNc1ncc2c(/C=C/C(=O)N3CCC(OC)CC3)nn(Cc3cccc(C(F)(F)F)c3)c2n1 | MYLK3 (Homo sapiens, UniProt Q32MK0) | enzyme activity, inhibitor, radiometric |  | 1 µM | remaining activity | 95%
COCC(CNC(C)=O)c1cccc2ccc(OC)cc12 (stereo not shown) | MTNR1A | cAMP, agonist, TR-FRET | CHO-K1 | 20 min | Emax | 67%
N[C@H]1CCN(c2nccc(-c3cnn4ncccc34)n2)C1 | SIK1 | binding |  | 1 µM | remaining binding | 100%
CCCCC(=O)Nc1ccc(-c2ccc3ncn(CCC)c(=O)c3c2)cn1 | PIK3CA (Homo sapiens, UniProt P42336, E545A) | binding, competition with immobilised ligand |  | 0.5 µM | remaining binding | 97%
C=CC(=O)N1CCC(COCC(=O)N2CCN(c3nc(-c4cnc(N)nc4C(F)F)nc(N4CCOC[C@@H]4C)n3)CC2)CC1 | YES1 (Homo sapiens, UniProt P07947) | binding, competition with immobilised ligand |  | 1 µM | remaining binding | 84%
Nc1ncnc2occ(-c3ccc(NC(=O)Nc4cc(C(F)(F)F)ccc4F)cc3)c12 | PIK3CA (Homo sapiens, UniProt P42336, C420R) | cell-free assay, inhibitor |  | 20 µM | remaining signal | 100%
CC(=O)/C=C/C=C(C)/C=C/C1=C(C)CC(O)CC1(C)C (stereo in doubt) | KAI2 (Arabidopsis thaliana, UniProt Q9SZU7) | thermal stability, DSF |  | 10 µM | ΔTm | 0.44 °C
Cc1cc([C@@H](C)Nc2ccccc2C(=O)O)c2nc(N3CCC(F)(F)CC3)c(C#N)c(=O)n2c1 | CSNK1D (Homo sapiens, UniProt P48730) | binding, competition with immobilised ligand |  | 1 µM | remaining binding | 95%
CC(=NNC(=O)c1ccccc1)c1ccc(Nc2nnc(-c3ccc(Cl)cc3)c3ccccc23)cc1 | HepG2 | cell growth or viability, MTT |  | 0.312 µM | cell death | 0.43%
C1=C/COCc2cc(ccc2OCCN2CCCC2)Nc2nccc(n2)-c2cccc(c2)COC/1 | Tyrosine-protein kinase JAK1, JH1 (JAK1, Homo sapiens, UniProt P23458) | cell-free assay |  | 0.1 µM | remaining signal | 100%
CCC(=O)NC1Cc2ccccc2C(c2ccccc2)C1 (stereo not shown) | MTNR1B (Homo sapiens, UniProt P49286) | β-arrestin recruitment, agonist | MT2 | 90 min | Emax | 68%
NC/C(=C\F)COc1cccc(Cn2c(=S)[nH]c(=O)c3[nH]cnc32)c1 | ADRA2A (Homo sapiens, UniProt P08913) | ligand displacement, radioligand |  | 10 µM | inhibition | < 50%
COc1ccc2cccc(CCNC(C)=O)c2c1 | MTNR1A | GTPγS binding, agonist, radiometric |  | cell membranes | Emax | 71%
C[C@@H]1CCN(c2nccc(-c3cnn4ncccc34)n2)C1 | SIK1 | binding |  | 1 µM | remaining binding | 100%
